Measurements gathered from unrelated publications.
Compare with care: the assays were run in different laboratories. Several values in a cell are separate wells, animals, samples, runs or records. Numbers after ± are the reported error. No end group written: not given here.
B1: bicyclic; chain AATCHCRRSCYSTEYSYGTCTVMGINHRFCCL (also: bicyclic or more (positions not given here))
UniProt P08183, sequence (whole entry, looked up): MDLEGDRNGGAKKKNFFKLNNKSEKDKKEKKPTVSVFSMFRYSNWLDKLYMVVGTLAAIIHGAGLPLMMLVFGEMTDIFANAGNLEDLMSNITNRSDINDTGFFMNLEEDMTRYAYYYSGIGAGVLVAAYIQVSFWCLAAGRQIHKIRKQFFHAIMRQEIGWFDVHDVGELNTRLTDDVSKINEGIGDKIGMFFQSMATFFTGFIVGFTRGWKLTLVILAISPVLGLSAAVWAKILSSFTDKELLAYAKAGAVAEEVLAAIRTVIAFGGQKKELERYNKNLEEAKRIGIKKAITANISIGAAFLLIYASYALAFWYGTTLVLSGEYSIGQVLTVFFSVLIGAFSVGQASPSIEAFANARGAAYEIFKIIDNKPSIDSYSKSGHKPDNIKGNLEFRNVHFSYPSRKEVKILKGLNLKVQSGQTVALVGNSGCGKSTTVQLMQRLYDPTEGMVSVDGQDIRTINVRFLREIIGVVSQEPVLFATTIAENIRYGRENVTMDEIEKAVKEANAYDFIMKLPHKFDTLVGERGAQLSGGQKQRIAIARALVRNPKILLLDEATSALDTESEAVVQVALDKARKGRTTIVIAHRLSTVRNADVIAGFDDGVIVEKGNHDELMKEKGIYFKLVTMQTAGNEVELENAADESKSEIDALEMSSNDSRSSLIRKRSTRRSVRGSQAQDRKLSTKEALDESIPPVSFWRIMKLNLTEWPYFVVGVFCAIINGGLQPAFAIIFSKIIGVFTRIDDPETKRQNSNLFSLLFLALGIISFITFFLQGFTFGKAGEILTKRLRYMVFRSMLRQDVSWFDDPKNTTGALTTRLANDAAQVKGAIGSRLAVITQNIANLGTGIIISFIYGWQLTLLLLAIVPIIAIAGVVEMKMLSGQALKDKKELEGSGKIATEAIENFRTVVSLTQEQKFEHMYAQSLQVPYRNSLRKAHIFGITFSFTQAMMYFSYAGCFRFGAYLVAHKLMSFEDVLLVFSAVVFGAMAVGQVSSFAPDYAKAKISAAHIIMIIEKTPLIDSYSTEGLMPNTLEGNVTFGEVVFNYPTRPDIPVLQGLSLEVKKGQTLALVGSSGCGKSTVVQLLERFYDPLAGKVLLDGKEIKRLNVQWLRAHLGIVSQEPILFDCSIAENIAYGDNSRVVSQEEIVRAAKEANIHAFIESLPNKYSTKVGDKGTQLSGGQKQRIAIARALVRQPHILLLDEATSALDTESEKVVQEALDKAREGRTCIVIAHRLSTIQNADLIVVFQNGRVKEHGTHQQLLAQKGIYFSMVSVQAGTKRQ
UniProt Q9NPD5, sequence (whole entry, looked up): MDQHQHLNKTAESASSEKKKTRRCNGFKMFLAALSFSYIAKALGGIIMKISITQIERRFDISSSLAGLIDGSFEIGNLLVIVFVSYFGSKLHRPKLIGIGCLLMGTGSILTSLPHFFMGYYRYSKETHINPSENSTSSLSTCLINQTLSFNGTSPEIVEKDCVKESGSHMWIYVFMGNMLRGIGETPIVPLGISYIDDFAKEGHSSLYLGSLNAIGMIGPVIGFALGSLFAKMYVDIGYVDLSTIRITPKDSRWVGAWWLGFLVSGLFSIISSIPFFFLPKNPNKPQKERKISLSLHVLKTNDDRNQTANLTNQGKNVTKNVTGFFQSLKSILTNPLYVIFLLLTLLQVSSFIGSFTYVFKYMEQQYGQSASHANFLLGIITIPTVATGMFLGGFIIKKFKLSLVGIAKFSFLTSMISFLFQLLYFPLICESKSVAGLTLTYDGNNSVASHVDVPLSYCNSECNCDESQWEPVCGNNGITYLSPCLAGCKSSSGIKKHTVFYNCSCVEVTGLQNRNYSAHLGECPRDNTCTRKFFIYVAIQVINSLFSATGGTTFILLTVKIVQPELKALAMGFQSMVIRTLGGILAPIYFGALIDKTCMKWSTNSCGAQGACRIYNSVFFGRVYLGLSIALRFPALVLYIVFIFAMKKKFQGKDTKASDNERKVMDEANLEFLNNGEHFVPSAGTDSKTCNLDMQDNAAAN
UniProt Q9UNQ0, sequence (whole entry, looked up): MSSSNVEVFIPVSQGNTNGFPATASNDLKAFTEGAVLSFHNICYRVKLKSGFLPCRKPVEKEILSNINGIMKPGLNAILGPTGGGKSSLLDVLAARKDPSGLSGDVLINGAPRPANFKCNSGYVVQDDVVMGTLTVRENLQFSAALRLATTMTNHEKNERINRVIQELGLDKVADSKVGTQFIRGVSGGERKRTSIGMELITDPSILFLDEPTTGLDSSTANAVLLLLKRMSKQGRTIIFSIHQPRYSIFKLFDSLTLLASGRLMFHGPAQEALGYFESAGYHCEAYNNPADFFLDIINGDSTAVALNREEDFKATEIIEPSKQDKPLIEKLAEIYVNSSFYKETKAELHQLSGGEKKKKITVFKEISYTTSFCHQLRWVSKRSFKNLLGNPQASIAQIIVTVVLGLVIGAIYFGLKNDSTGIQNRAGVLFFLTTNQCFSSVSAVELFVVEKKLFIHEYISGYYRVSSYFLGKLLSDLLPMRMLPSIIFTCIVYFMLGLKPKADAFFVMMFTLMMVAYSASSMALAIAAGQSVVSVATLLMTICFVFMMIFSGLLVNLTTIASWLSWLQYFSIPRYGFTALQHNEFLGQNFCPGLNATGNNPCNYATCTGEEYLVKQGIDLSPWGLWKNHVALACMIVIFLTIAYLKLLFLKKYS

Substance	tested on	test	test system	setting	scale	measurement	value
teicoplanin	Solute carrier organic anion transporter family member 1B3 (SLCO1B3, Homo sapiens, UniProt Q9NPD5)	inhibitor				IC50	7.5 µM
B1		sedimentation velocity ultracentrifugation	10 mM Tris-maleate	100 µM, pH 6.4, 20 °C		sedimentation coefficient s20,w	0.792 S
Polymyxin B		untargeted LC-MS metabolomics, refers to: pyrophosphate	Sprague-Dawley rat, right cerebral cortex	intracerebroventricular, 0.75 mg/kg, 1 h	relative to: NaCl control	log2 fold change	-9.8
Tumor necrosis factor alpha	ATP-dependent translocase ABCB1 (ABCB1, Homo sapiens, UniProt P08183)		enteroid monolayers	1 ng/mL, 48 h, added: tariquidar 10 µM		digoxin efflux ratio	increased
GSGAGKETYY	human SCRIB PDZ3-4 tandem (MBP fusion)	automated holdup	peptide, crude extract	concentration not given, corrected by standard peak, unit not given	relative to: biotin control resin, higher = stronger binding	binding intensity	0.000166
Peginesatide	UT7/EPO	RT-qPCR, refers to: IRF1		concentration not given, 90 min, normalized to HPRT1	relative to: vehicle	mRNA level	3.4 fold
GSGAGIESNV	human SCRIB PDZ3-4 tandem (MBP fusion)	surface plasmon resonance	peptide	concentration not given	higher = stronger binding	normalised SPR binding response	88.4 normalised RU
glutathione	PC-12	CellTiter-Glo		1 mM, 72 h	relative to: vehicle	viability	100% and 96.8% and 104% and 101%
LVHYTHCGSLGV	Epstein-Barr virus		peptide, EBV-infected humanized B-NDG mice	20 mg/kg, day 28		body weight	22.6 g and 22.3 g and 22.8 g
TYASNTSTL	HLA-A24 complex with compound	nanoDSF	peptide	pH 7.6, 2 µM complex		Tm	61.8 ± 0.1 °C
FNA / CGLSGLGVA-NH2 ([18F]FNA-labelled, C-amide)		ex vivo gamma counting	peptide, glioblastoma mouse model, pancreas	60 min post injection, added: 500-fold excess CooP blocking		tissue uptake	0.26 %ID/g
Lucifer yellow	Broad substrate specificity ATP-binding cassette transporter ABCG2 (ABCG2, Homo sapiens, UniProt Q9UNQ0)	substrate			relative to: ATP over AMP	uptake ratio	37
Teicoplanin		refers to: stability	human serum	time not given, low QC, 3 freeze-thaw cycles		recovery	96%
Polymyxin B	Acinetobacter baumannii		17978, neutropenic mice with pneumonia	nebulised, dose not given		blood urea nitrogen	increased
RRVCLCYCRRRSCLCVCR (disulfide (positions not given here)) (disulfide)	human red blood cells			128 µg/mL, 3 h, 37 °C	relative to: Triton X-100 1%	haemolysis	45.4%
regorafenib N-β-glucuronide			reconstituted mouse plasma extract	up to 24 h, 4 °C	relative to: initial concentration	autosampler stability	< 15%
colistin	Klebsiella pneumoniae	broth microdilution	clinical isolate RKI-No_268/15			MIC	32 mg/L
ILKEPVHGV	HLA-A2 complex with compound	nanoDSF	peptide	pH 7.6, 2 µM complex		Tm	64.2 ± 0.1 °C
caspofungin			adult ICU patients, mITT, serum	dose not given, Baseline		albumin	26 g/L
Rilpivirine docusate			Capmul MCM C8	mean of three		kinetic solubility	~500 mg/mL

A few entries again:
Substance	tested on	test	test system	setting	scale	measurement	value
TYASNTSTL	HLA-A24 complex with compound	nanoDSF	peptide	pH 7.6, 2 µM complex		Tm	61.8 ± 0.1 °C
regorafenib N-β-glucuronide			reconstituted mouse plasma extract	up to 24 h, 4 °C	relative to: initial concentration	autosampler stability	< 15%
